Results pooled from the literature.
Protocols differ between the studies behind these lines. “And” joins repeats or separate records; there may be more than shown. ± gives the spread as reported.
Oprd1: Delta-type opioid receptor (Oprd1, Rattus norvegicus, UniProt P33533)
Chain of UniProt P33533 (whole entry, looked up): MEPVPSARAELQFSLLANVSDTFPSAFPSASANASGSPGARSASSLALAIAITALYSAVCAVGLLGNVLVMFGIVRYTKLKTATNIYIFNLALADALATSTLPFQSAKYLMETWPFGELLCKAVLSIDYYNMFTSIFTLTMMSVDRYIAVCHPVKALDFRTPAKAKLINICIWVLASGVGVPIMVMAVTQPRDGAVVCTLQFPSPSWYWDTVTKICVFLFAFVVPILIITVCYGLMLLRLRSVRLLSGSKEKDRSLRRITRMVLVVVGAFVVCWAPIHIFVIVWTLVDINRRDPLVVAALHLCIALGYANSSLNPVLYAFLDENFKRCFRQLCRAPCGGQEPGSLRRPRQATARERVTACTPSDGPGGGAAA
SLC6A4: Sodium-dependent serotonin transporter (SLC6A4, Homo sapiens, UniProt P31645)
Chain of UniProt A5GZW8 (whole entry, looked up): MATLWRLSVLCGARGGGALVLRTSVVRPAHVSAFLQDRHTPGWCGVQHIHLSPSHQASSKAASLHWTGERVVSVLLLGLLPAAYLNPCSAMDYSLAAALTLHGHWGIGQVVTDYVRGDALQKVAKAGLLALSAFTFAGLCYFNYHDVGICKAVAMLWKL
Chain of UniProt Q007T0 (whole entry, looked up): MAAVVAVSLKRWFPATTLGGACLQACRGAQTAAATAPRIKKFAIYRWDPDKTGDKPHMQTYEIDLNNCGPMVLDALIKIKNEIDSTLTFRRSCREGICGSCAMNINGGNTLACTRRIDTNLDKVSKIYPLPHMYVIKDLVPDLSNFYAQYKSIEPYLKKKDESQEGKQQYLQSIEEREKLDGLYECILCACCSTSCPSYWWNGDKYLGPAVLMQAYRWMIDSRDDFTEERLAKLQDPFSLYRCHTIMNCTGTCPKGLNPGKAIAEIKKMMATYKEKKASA
Chain of UniProt Q8BLF1 (whole entry, looked up): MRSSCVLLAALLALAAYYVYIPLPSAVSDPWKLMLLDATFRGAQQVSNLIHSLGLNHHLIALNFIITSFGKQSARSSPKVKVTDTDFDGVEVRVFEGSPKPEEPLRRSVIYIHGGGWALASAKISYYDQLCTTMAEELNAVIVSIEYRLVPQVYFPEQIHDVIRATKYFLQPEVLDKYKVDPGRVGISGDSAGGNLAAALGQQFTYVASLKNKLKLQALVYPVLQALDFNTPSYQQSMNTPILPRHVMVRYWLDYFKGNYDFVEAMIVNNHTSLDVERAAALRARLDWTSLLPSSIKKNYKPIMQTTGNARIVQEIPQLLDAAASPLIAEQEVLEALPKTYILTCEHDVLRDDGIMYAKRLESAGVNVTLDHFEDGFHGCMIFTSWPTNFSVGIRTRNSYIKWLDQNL
Chain of UniProt D0VWV4 (whole entry, looked up): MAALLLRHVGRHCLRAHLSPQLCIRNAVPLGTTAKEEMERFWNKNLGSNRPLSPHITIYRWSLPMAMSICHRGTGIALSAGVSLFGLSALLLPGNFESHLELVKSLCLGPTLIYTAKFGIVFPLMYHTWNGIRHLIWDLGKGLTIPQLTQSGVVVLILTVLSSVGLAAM
Chain of UniProt Q9UH17 (whole entry, looked up): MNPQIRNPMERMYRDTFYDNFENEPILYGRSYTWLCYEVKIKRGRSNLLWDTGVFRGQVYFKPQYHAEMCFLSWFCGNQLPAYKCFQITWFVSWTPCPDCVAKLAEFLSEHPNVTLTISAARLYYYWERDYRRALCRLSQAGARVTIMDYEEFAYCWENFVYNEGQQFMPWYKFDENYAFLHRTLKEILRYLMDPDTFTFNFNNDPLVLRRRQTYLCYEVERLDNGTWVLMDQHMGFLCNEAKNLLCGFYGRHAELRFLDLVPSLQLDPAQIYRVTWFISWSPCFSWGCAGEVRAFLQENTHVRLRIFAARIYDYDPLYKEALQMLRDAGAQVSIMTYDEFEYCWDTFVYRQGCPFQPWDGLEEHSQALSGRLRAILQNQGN
Chain of UniProt P62813 (whole entry, looked up): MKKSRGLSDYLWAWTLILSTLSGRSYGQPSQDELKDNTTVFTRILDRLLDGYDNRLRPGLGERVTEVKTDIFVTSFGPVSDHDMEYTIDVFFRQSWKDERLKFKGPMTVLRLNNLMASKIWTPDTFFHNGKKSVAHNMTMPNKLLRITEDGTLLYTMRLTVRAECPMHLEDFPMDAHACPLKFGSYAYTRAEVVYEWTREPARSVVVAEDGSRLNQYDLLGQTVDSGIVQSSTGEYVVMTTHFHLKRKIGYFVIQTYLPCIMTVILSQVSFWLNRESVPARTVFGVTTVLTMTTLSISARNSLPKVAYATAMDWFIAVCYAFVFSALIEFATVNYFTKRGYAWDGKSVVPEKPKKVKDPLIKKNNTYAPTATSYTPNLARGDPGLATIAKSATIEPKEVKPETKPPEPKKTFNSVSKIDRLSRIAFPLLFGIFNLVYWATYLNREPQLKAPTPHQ
Chain of UniProt P18508 (whole entry, looked up): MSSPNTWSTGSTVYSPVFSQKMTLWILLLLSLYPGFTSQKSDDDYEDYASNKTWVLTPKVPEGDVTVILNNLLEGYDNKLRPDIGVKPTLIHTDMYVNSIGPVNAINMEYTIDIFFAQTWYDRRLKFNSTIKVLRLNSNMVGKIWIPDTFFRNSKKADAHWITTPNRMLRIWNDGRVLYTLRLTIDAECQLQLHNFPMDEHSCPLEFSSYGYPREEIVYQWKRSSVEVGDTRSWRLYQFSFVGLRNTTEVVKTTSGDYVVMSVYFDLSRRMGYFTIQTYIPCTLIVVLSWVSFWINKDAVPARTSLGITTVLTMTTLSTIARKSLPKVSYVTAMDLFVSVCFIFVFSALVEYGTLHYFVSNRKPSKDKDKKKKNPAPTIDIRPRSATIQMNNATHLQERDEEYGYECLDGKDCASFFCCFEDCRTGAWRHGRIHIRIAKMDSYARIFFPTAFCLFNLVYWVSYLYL
Chain of UniProt P21554 (whole entry, looked up): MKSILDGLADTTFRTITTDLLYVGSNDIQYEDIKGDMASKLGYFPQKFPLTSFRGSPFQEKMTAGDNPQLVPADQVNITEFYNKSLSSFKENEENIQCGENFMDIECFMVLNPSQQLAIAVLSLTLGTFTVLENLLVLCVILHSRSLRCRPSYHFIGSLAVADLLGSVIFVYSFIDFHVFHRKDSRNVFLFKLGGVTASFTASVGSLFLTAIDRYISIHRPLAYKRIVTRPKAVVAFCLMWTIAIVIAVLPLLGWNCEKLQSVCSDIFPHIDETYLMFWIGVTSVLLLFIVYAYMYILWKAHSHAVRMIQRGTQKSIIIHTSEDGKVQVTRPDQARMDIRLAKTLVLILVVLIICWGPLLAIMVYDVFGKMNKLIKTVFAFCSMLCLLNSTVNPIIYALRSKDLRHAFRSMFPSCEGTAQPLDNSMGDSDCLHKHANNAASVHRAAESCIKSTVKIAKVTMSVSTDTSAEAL
Chain of UniProt Q96JP5 (whole entry, looked up): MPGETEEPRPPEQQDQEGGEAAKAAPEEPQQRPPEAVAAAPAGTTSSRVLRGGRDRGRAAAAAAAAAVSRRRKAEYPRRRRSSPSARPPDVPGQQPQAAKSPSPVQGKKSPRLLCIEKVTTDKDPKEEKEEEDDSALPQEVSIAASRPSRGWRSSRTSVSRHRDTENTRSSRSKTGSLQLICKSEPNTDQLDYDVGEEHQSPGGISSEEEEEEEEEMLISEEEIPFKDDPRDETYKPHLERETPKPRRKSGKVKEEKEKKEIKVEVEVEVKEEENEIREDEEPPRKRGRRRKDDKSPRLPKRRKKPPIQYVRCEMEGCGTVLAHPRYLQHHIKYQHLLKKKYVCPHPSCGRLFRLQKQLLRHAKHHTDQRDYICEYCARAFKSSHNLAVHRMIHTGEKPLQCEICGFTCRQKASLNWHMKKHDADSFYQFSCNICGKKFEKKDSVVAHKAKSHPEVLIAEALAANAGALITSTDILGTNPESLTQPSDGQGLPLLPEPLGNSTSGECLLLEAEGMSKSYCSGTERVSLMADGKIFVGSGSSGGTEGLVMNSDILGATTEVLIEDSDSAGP
Chain of UniProt P20273 (whole entry, looked up): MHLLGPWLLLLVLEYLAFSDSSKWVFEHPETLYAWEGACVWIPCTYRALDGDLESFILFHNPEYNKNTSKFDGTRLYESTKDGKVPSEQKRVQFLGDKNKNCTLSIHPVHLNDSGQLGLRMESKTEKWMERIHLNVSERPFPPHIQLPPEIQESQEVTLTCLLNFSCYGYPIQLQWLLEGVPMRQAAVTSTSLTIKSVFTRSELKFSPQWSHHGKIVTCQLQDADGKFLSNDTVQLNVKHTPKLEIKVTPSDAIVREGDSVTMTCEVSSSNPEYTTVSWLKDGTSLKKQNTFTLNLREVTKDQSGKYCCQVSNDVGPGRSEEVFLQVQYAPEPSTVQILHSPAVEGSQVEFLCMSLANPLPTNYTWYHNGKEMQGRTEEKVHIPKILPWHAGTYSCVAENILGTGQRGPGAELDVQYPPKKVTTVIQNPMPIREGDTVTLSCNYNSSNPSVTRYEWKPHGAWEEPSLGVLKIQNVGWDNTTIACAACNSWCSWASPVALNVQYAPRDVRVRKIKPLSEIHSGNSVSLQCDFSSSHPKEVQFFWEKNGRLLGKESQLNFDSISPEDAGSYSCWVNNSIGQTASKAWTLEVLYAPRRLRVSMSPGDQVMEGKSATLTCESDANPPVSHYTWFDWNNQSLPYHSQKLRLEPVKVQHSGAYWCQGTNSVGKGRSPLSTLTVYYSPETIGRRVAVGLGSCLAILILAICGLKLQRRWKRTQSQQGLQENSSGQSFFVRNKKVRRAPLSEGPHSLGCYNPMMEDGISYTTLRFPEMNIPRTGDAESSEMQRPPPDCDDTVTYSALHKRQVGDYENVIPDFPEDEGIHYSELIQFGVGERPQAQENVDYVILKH
Chain of UniProt P0A988 (whole entry, unmodified, looked up): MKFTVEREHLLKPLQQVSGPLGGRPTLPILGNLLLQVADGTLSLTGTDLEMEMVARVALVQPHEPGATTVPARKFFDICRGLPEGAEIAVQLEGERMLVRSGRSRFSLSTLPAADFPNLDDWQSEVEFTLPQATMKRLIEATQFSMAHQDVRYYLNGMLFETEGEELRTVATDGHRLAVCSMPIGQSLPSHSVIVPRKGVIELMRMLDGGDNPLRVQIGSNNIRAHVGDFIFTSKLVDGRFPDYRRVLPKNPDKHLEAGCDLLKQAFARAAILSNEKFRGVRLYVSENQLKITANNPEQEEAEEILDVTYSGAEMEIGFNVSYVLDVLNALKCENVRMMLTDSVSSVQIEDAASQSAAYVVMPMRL

SMILES	tested on	assay	test system	conditions	how to read	measurement	result
CS(C)(=O)=Nc1ccc(-c2ccc(-c3nc4cc(O[C@@H]5CO[C@H]6[C@@H]5OC[C@H]6O)[nH]c4cc3F)cc2)cc1	FER (Homo sapiens, UniProt P16591)	enzyme activity, inhibitor	–	10 µM	–	inhibition	-16%
O=C(O)c1ccc(-c2nc(-c3ccccc3Cl)c3sccn23)cc1	Gabrg2/Gabra1, benzodiazepine site (Rattus norvegicus, UniProt P18508+P62813)	radioligand binding	–	10 µM	reference: control	specific binding	102%
OC[C@H]1CNCCN1C[C@@H]1CCCN1C[C@@H](Cc1ccc2ccccc2c1)N1CCN(CCC23CC4CC(CC(C4)C2)C3)[C@H](Cc2ccc(O)cc2)C1	Oprd1	radioligand binding	rat brain membranes	500 nM, pH 7.5, 25 °C, together with: 2 nM [3H]DPDPE	–	remaining binding	91.1%
Cc1ccc(NC(=O)CCc2cccc(NC3=CC(=O)N(C4CCC(=O)NC4=O)C3=O)c2)cc1Cl (stereo not shown)	E3 ubiquitin-protein ligase ZFP91/CRBN (Homo sapiens, UniProt Q96JP5+Q96SW2)	degrader, quantitative proteomics, item: protein abundance	Jurkat	1 µM, 4 h	reference: DMSO	log2 fold change	-0.387
CN(C)CCCSC(=S)N1CCN(C(=O)/C=C/c2coc3ccccc3c2=O)CC1	Nucleoprotein (N, Tomato spotted wilt virus, UniProt P25999, R94A/Y184A)	binding, microscale thermophoresis	–	7.812 µM	dose series	MST response	0.851 a.u.
O=C1NC(=O)c2c1c1cc(F)c[n+]3c1c1c2c2cc(O)ccc2[n]1[Ru-4]312([N]=C=S)[S+]3CC[S+]1CC[S+]2CC3 (stereo not shown)	BRSK2 (Homo sapiens, UniProt Q8IWQ3)	enzyme activity	–	100 nM, human enzyme, together with: 10 µM ATP	reference: untreated	remaining activity	32%
CCOC(=O)[C@@H]1Cc2c(cc([N+](=O)[O-])cc2[N+](=O)[O-])[C@H](O)[C@]12C(=O)Nc1ccc(Br)cc12	MKNK2 (Homo sapiens, UniProt Q9HBH9)	binding, competition with immobilised ligand	–	0.1 µM	–	remaining binding	100%
C=C(c1ccccc1)[C@H](N)P(=O)(O)O	PAL1 (Petroselinum crispum, UniProt P24481, Y110F)	binding, ITC	–	–	–	-TΔS	-0.5 kcal/mol
CC(C)[C@H]1NC(=O)C[C@H]2/C=C/CCSSC[C@@H](NC1=O)C(=O)N[C@H](Cc1cccc3ccccc13)C(=O)NCC(=O)O2	TNIK (Homo sapiens, UniProt Q9UKE5)	enzyme activity, inhibitor	–	10 µM	–	inhibition	-3.7%
CCc1nnc(-c2c(OC)cc(-c3cnc4cc(-c5cnn(C)c5)ccn34)cc2OC)o1	SLC6A4	antagonist radioligand, radioligand binding	–	10 µM, SafetyScreen44 5-HT transporter replicate 2	lower = stronger displacement	remaining binding	110%
CNC(=O)C[C@H](Cc1ccc(C#N)cc1)NC(=O)c1cc(-c2ccc(CN[C@H](C)c3ccc(C)cc3)o2)ccc1Cl	PRPF4B (Homo sapiens, UniProt Q13523)	enzyme activity, inhibitor	–	1 µM	–	activity vs control	90%
CC[C@H](C)[C@H](NC(=O)[C@H](CCCCN)NC(=O)CNC(=O)[C@H](CC(C)C)NC(=O)[C@H](Cc1ccccc1)NC(=O)[C@H](CCCCN)NC(=O)[C@H](CO)NC(=O)[C@H](Cc1ccccc1)NC(=O)[C@H](Cc1c[nH]c2ccccc12)NC(=O)[C@H](CCC(N)=O)NC(=O)[C@@H](NC(=O)[C@H](Cc1ccccc1)NC(=O)CCCCCNC(=O)CN1CCN(CC(=O)O)CCN(CC(=O)O)CCN(CC(=O)O)CC1)C(C)C)C(=O)N[C@@H](CCC(=O)O)C(=O)N1CCC[C@H]1C(=O)N[C@@H](CC(=O)O)C(=O)N[C@H](C(=O)N[C@@H](CO)C(=O)N[C@@H](CCC(N)=O)C(=O)N[C@H](C(=O)N[C@@H](CCC(N)=O)C(=O)N[C@@H](CC(=O)O)C(=O)N1CCC[C@H]1C(=O)N[C@@H](CC(N)=O)C(=O)N[C@@H](CC(=O)O)C(=O)N[C@@H](CCC(N)=O)C(=O)N[C@@H](Cc1ccc(O)cc1)C(=O)N[C@@H](CCC(=O)O)C(=O)N1CCC[C@H]1C(=O)N[C@@H](Cc1ccccc1)C(=O)O)C(C)C)C(C)C [copper-64 labelled]	–	–	C57BL/6 mice, pancreas	together with: LPS 3 mg/kg intratracheal	–	tissue uptake	1.5 ± 0.1 %ID/g
COC(=O)[C@@H](NC(=O)c1nn(Cc2ccc(F)cc2)c2cc(OCCCCNC(N)=O)ccc12)C(C)(C)C	Cannabinoid receptor 1, with Goa (CNR1, Homo sapiens, UniProt P21554)	GTP turnover, agonist, item: Goa Gα subtype	–	–	–	maximal efficacy	113%
Cc1ccc(NS(=O)(=O)c2c(C(=O)N3CCCCCC3)c(C)n(C)c2C)c(Cl)c1	CV-1	–	African green monkey cells	1.235 µM, 60 (unit not given)	–	viability	97.4% and 99.1%
CCCCC[C@@H]1OC(=O)[C@@H](C)N(C)C(=O)[C@H](CCCCC)OC(=O)[C@@H](C)N(C)C(=O)[C@H](CCCCC)OC(=O)[C@@H](C)N(C)C(=O)[C@H](CCCCC)OC(=O)[C@@H](C)N(C)C1=O	ryanodine receptor 2 (Sus scrofa, UniProt A0A5G2R1W3)	single-channel gating, planar lipid bilayer	–	3 µM, pCa 7, porcine	–	closed dwell time constant T2	116 ± 27 ms
COc1ccccc1-c1n[nH]c2nc(NC3CCN(C(=O)Cc4ccc(F)cc4F)CC3)ncc12	cdc2-related kinase 6 (Leishmania donovani, UniProt A0A3Q8IPR6)	affinity bead binding, bead competition pull-down	Leishmania donovani extract	10 µM, analogue affinity beads	reference: vehicle	relative binding	0.15
CC(C)C[C@H](NC(=O)[C@H](CCC(=O)O)NC(=O)[C@@H](N)Cc1ccccc1)C(=O)N[C@@H](CCC(=O)O)C(=O)N[C@@H](CCCNC(=N)N)C(=O)N[C@@H](CCCNC(=N)N)C(=O)N[C@@H](Cc1ccccc1)C(=O)N[C@@H](CCCCN)C(=O)N[C@@H](CCC(N)=O)C(=O)N[C@@H](CCC(N)=O)C(=O)O	NKX2-3	ChIP-qPCR, item: PDE1C promoter	TPCs	concentration not given	–	promoter binding	0.0271 % input and 0.0307 % input
O=C1NC2(CC2)COc2ncc(F)cc2[C@H]2COCCN2c2ccn3ncc1c3n2	–	–	Sprague-Dawley rat, male, serum	oral, 5 mg/kg/day, end of recovery, 4-week subacute toxicity	–	serum total protein	57.7 ± 2.8 g/L
CC[C@@H](C)[C@@H]1CN([C@@H](CC2CCCCC2)CN2CCC[C@H]2CN2CCNC[C@@H]2Cc2ccc3ccccc3c2)CCN1CCC12CC3CC(CC(C3)C1)C2	Oprd1	radioligand binding	rat brain membranes	500 nM, pH 7.5, 25 °C, together with: 2 nM [3H]DPDPE	–	remaining binding	91.1%

SMILES	tested on	assay	test system	conditions	how to read	measurement	result
C=CC(=O)Nc1cc(-c2ccc(C(=O)N3CCCC(O)(CC)C3)cc2)ccc1F (stereo not shown)	DNA dC->dU-editing enzyme APOBEC-3B, C-terminal domain (Homo sapiens, UniProt Q9UH17)	covalent adduct, intact protein MS, item: mass +397 Da adduct of 25735 Da	–	125 µM, 3 h, 5-fold molar excess	–	adducted protein	37% and 35%
CC[C@H](C)[C@H](NC(=O)[C@H](CO)NC(=O)[C@H](Cc1ccc(O)cc1)NC(=O)[C@H](Cc1ccc(O)cc1)NC(=O)[C@H](CC(N)=O)NC(=O)CNC(=O)[C@H](CO)NC(=O)[C@H](Cc1ccc(O)cc1)NC(=O)[C@H](CO)NC(=O)[C@H](CO)NC(=O)[C@H](CC(N)=O)NC(=O)COCCOCCNC(=O)CN1CCN(CC(=O)O)CCN(CC(=O)O)CCN(CC(=O)O)CC1)C(=O)N[C@@H](CC(C)C)C(N)=O [copper-64 labelled]	–	dynamic PET	KPC mouse Ptf1a-CreER tdTomato, pancreas	intravenous, 4.6 MBq/mouse, 17.5 min, 84 d after tamoxifen	–	tissue uptake	12.8 %ID/mL
CCCCC/C=C\C/C=C\C/C=C\C/C=C\CCCC(=O)NCCc1ccc(O)c(O)c1	Trpv1 (Mus musculus, UniProt Q704Y3, E571S)	ion current, agonist, whole-cell patch clamp	–	E571S	–	Hill coefficient	1.91 ± 0.21
O=C(CF)N[C@H]1[C@H]([C@H](O)[C@H](O)CNC(=O)c2ccc(Oc3ccccc3)cc2)O[C@@](OCc2cccc(Cl)c2Cl)(C(=O)O)C[C@@H]1O	CD22 (Homo sapiens, UniProt P20273)	isothermal titration calorimetry	–	concentration not given	–	binding stoichiometry	0.9 ± 0.07
Cc1nc2cccc(OCC(C)(C)C(=O)NC(C)C)c2c(N)c1C(=O)[O-].[Na+]	Salmonella typhimurium	–	TA100	0.13 mg per plate, without S9, plate incorporation	–	revertant colonies per plate	156 ± 3
CN(C)[C@H]1C[C@@]23CC[C@@]4(O2)C(=CC[C@]2(C)[C@@H](c5ccc6ccncc6c5)CC[C@H]24)C=C3[C@@H](O)[C@@H]1O	MAP4K5 (Homo sapiens, UniProt Q9Y4K4)	cell-free assay, inhibitor	–	1 µM	–	inhibition	-1.4%
COCC1CCCCN1C(=O)n1cc(C(O)(c2ccccc2)c2ccccc2)nn1 (stereo not shown)	Prolyl endopeptidase-like (Prepl, Mus musculus, UniProt Q8C167)	enzyme activity, inhibitor, competitive ABPP-SILAC, item: Prepl	mouse T-cells	concentration not given, 4 h, treated in situ	reference: DMSO	activity ratio	1.25
CON(C(=O)c1cn(C)nc1C(F)F)C(C)Cc1c(Cl)cc(Cl)cc1Cl (stereo not shown)	SDHD/SDHC/SDHB (Sus scrofa, UniProt A5GZW8+D0VWV4+Q007T0)	enzyme activity, inhibitor, DCIP reduction	pig	0.6 µM, together with: DCIP 80 µM	–	reaction velocity	0.00882 µM/s and 0.00822 µM/s and 0.00851 µM/s
CCCCC1CNCCN1CC1CCCN1CC(CC1CCCCC1)N1CCN(CCCC2CCCC2)C(Cc2ccc(O)cc2)C1 (stereo not shown)	Oprd1	radioligand binding	rat brain membranes	500 nM, pH 7.5, 25 °C, together with: 2 nM [3H]DPDPE	–	remaining binding	88.5%
CC(C)(C)C(=O)OCOP(=O)(OCOC(=O)C(C)(C)C)C1CCCN(O)C1=O (stereo not shown)	MDA-MB-435	–	–	–	–	log LC50	> -4 log M
CC(C)CC(O)(CC(C)C)c1cn(C(=O)N2CCCC2)nn1	Neutral cholesterol ester hydrolase 1 (Mus musculus, UniProt Q8BLF1)	probe labelling, inhibitor, competitive ABPP-SILAC, item: Aadacl1	mouse T cells	concentration not given, 4 h, single peptide	reference: treated over DMSO cells, lower = stronger inhibition	SILAC activity ratio	1.25 and 1.43 and 1.3 and 1.23 and 1.02 and 1.33
Cc1sc2c(c1C)C(c1ccc(Cl)cc1)=NC(CC(=O)OC(C)(C)C)c1nnc(C)n1-2 (stereo not shown)	SLC6A4	ligand displacement, radioligand	–	1 µM	–	remaining binding	119%
CC#CC(=O)NC[C@H](NC(=O)[C@H](CC1CCCCC1)NC(=O)[C@H](CCC(N)=O)NC(C)=O)C(=O)N[C@@H](CC(C)C)C(=O)N[C@@H](Cc1ccccc1)C(=O)O	Beta sliding clamp (Escherichia coli, UniProt P0A988)	binding, isothermal titration calorimetry	–	22 °C	–	ΔH	-13.1 kcal/mol
N[C@H](C(=O)N1CCCC1)C1CCN(c2nccc3c(-c4ncc(Cl)cc4Cl)cccc23)CC1	AGTR1 (Homo sapiens, UniProt P30556)	functional response, agonist	–	10 µM	–	response	3%
Cc1cc(Oc2nc(N3CC[C@@H](c4ccncc4)C3)ncc2F)[nH]n1	NCI-H460	cell proliferation	lung cancer	–	–	IC50	37.2 µM
Nc1ccc(/C=C/C(=O)N2CCc3c(oc4c(-c5ccc(F)cc5)cc(-c5ccc(C(=O)N6CCC(F)(F)CC6)cn5)cc34)C2)cn1	STK11 (Homo sapiens, UniProt Q15831)	binding, competition with immobilised ligand	–	1 µM	–	remaining binding	100%
Cc1cc(C(=O)Nc2nc3cccc(C)c3n2[C@H]2CCCCN(C(=O)/C=C/CN(C)C)C2)ccn1	Trypanosoma brucei	–	STIB795, mouse acute HAT model	oral, 2.5 mg/kg once daily for 4 days, day 10	reference: mice	survival	0%
CC12CCC(=O)C=C1CCC1C2C=C(c2cccnc2)C2(C)C(=O)CCC12 (stereo not shown)	7-alpha-hydroxycholest-4-en-3-one 12-alpha-hydroxylase (Homo sapiens, UniProt Q9UNU6, W281F)	inhibitor	–	80 µM, together with: 7α-hydroxycholest-4-en-3-one 0.54 µM	–	remaining activity	58.3 ± 1.8%

Excerpt of the above:
SMILES	tested on	assay	test system	conditions	how to read	measurement	result
CCOC(=O)[C@@H]1Cc2c(cc([N+](=O)[O-])cc2[N+](=O)[O-])[C@H](O)[C@]12C(=O)Nc1ccc(Br)cc12	MKNK2 (Homo sapiens, UniProt Q9HBH9)	binding, competition with immobilised ligand	–	0.1 µM	–	remaining binding	100%
CN(C)[C@H]1C[C@@]23CC[C@@]4(O2)C(=CC[C@]2(C)[C@@H](c5ccc6ccncc6c5)CC[C@H]24)C=C3[C@@H](O)[C@@H]1O	MAP4K5 (Homo sapiens, UniProt Q9Y4K4)	cell-free assay, inhibitor	–	1 µM	–	inhibition	-1.4%
CC12CCC(=O)C=C1CCC1C2C=C(c2cccnc2)C2(C)C(=O)CCC12 (stereo not shown)	7-alpha-hydroxycholest-4-en-3-one 12-alpha-hydroxylase (Homo sapiens, UniProt Q9UNU6, W281F)	inhibitor	–	80 µM, together with: 7α-hydroxycholest-4-en-3-one 0.54 µM	–	remaining activity	58.3 ± 1.8%
CC(C)CC(O)(CC(C)C)c1cn(C(=O)N2CCCC2)nn1	Neutral cholesterol ester hydrolase 1 (Mus musculus, UniProt Q8BLF1)	probe labelling, inhibitor, competitive ABPP-SILAC, item: Aadacl1	mouse T cells	concentration not given, 4 h, single peptide	reference: treated over DMSO cells, lower = stronger inhibition	SILAC activity ratio	1.25 and 1.43 and 1.3 and 1.23 and 1.02 and 1.33
CC(C)(C)C(=O)OCOP(=O)(OCOC(=O)C(C)(C)C)C1CCCN(O)C1=O (stereo not shown)	MDA-MB-435	–	–	–	–	log LC50	> -4 log M
Cc1ccc(NC(=O)CCc2cccc(NC3=CC(=O)N(C4CCC(=O)NC4=O)C3=O)c2)cc1Cl (stereo not shown)	E3 ubiquitin-protein ligase ZFP91/CRBN (Homo sapiens, UniProt Q96JP5+Q96SW2)	degrader, quantitative proteomics, item: protein abundance	Jurkat	1 µM, 4 h	reference: DMSO	log2 fold change	-0.387
